Earlier results, collected from citations in different studies.
Numbered parts are unrelated; values within a part may stem from several laboratories. ± gives the spread as reported.

Study 1
Organism: Cryptosporidium parvum
Method: high-throughput screen
Tested at: concentration not given
SMILES | activity
O=C(c1ccccc1)c1ccc2n1CCC2C(=O)O (stereo not drawn) | inactive
COc1cc(OC)c(C(=O)CCCN2CCCC2)c(OC)c1.Cl | inactive
C[C@](N)(Cc1ccc(O)c(O)c1)C(=O)O | inactive
COc1cc2nc(N3CCN(C(=O)c4ccco4)CC3)nc(N)c2cc1OC | inactive
O=c1[nH]cnc2c1ncn2[C@H]1CC[C@@H](CO)O1 | inactive
CN1CCN(c2nc3cc(C(F)(F)F)ccc3n3cccc23)CC1 | inactive
COc1cc(C(=O)NC2CCCNC2)cc(OC)c1OC (stereo not drawn) | inactive

Single results of other studies
SMILES | tested on | assay | test system | setting | endpoint | value
CC1=C(C#N)C(c2ccc3[nH]nc(C)c3c2)C(C#N)=C(C)N1 | RSK2 | Millipore kinase panel |  |  | IC50 | 900 nM
C=CC(=O)N1CCC([C@@H]2CCNc3c(C(N)=O)c(-c4ccc(Oc5ccccc5)cc4)nn32)CC1 |  |  | human patients | oral, 320 mg once daily, day 1 | Cmax | 683 ± 341 ng/mL
COc1cc(-c2cn(C3CCc4c(F)cccc4N(CC(F)(F)F)C3=O)nn2)ccc1-n1cnc(C)c1 (stereo not drawn) | sodium channel site 2 | radioligand binding |  |  | IC50 | 1000 nM
CCC(C)n1ncn(-c2ccc(N3CCN(c4ccc(OCC5COC(Cn6cncn6)(c6ccc(Cl)cc6Cl)O5)cc4)CC3)cc2)c1=O (stereo not drawn) |  | calculated | octanol/water |  | logP | 5.66
O=C(NCc1ncc(C(F)(F)F)cc1Cl)c1ccc2c(c1)C1(CCS(=O)(=O)CC1)[C@@H](C1CC1)N2S(=O)(=O)c1ccc(F)cc1 | MAPK14 | enzyme activity, Eurofins-Panlabs panel |  |  | IC50 | 10700 nM
CC(C)NCC(O)COc1cccc2ccccc12 (stereo not drawn) |  |  | human | oral | oral bioavailability | ~90%
c1ccc(N2CCN(Cc3nc4ccccc4[nH]3)CC2)nc1 | 5-HT1A receptor | Cerep binding |  |  | Ki | 2780 nM
COc1cc2c(=O)n(CCO)c3c4cc5c(cc4ncc3c2cc1OC)OCO5 | CPT-K5 | cytotoxicity |  |  | IC50 | > 10000 nM
